{"data": "Measurements of several laboratories", "note": "Each numbered part is a random draw from the data of one study; scales do not carry over between parts.", "chain of UniProt O43683 (whole entry, looked up)": "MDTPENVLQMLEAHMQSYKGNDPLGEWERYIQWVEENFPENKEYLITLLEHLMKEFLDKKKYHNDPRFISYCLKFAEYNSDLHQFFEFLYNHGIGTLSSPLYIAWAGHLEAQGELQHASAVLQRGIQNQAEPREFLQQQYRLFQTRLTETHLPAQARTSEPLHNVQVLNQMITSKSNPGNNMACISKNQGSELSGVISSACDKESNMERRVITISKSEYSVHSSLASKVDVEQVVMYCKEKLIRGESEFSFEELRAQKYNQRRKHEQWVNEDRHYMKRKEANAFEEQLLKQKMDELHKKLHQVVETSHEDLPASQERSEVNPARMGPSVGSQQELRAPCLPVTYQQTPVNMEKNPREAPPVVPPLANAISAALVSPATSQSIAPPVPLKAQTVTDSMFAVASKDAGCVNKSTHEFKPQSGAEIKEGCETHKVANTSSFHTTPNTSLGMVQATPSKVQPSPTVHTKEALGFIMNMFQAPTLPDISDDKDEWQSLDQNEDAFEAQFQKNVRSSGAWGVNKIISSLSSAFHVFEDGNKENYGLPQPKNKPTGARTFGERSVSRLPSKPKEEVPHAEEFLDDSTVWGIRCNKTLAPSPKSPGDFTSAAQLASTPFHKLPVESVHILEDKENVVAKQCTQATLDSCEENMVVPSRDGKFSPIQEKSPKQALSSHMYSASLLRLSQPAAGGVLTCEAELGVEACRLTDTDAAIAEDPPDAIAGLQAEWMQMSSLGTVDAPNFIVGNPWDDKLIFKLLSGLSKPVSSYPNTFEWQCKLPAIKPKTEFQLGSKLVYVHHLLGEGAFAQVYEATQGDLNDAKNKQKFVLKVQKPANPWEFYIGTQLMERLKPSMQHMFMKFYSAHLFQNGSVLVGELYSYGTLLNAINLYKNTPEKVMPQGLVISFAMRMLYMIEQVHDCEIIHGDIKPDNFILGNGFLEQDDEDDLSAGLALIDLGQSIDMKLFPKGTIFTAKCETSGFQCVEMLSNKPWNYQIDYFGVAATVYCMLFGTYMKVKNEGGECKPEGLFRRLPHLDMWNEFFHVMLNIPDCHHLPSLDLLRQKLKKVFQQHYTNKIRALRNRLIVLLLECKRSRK", "chain of UniProt P42338 (whole entry, looked up)": "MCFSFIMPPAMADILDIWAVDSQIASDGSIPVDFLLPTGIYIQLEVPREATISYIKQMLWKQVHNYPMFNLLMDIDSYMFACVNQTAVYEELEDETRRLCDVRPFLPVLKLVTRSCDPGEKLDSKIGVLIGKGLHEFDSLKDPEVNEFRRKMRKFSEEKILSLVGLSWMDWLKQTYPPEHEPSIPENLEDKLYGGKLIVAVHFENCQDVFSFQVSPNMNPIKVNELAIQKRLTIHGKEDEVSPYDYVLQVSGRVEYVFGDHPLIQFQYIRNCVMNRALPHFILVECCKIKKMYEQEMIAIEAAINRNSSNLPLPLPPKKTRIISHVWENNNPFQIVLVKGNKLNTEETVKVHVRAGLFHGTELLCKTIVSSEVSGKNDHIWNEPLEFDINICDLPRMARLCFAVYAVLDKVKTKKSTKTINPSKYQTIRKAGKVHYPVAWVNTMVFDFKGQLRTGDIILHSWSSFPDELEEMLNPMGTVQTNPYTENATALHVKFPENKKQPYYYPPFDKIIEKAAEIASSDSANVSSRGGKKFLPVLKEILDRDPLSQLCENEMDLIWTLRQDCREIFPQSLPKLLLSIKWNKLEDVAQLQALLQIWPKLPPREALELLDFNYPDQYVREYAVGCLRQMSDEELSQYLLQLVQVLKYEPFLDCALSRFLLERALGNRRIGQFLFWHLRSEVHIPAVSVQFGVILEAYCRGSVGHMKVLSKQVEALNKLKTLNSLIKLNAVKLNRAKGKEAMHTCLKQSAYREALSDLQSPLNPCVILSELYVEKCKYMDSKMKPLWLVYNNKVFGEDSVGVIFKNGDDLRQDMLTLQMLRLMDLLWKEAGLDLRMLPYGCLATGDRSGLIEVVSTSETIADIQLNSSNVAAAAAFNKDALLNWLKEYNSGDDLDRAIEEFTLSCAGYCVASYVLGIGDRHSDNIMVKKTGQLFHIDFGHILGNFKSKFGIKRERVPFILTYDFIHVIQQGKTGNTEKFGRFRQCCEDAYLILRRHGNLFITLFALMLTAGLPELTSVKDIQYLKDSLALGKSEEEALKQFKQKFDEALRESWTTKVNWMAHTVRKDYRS", "chain of UniProt Q13705 (whole entry, looked up)": "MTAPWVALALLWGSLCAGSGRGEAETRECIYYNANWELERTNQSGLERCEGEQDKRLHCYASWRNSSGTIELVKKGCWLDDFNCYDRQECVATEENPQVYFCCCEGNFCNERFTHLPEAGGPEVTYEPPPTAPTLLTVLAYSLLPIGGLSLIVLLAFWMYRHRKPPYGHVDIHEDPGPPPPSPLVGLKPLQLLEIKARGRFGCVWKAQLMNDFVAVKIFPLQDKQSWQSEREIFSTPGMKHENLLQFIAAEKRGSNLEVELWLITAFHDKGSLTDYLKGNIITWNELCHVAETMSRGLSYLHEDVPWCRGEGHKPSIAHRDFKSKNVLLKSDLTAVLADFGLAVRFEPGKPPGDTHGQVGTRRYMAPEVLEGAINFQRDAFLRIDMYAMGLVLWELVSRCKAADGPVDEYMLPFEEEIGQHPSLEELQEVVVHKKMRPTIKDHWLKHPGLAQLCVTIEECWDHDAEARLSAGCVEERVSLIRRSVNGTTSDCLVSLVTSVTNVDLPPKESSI", "chain of UniProt Q13153 (whole entry, looked up)": "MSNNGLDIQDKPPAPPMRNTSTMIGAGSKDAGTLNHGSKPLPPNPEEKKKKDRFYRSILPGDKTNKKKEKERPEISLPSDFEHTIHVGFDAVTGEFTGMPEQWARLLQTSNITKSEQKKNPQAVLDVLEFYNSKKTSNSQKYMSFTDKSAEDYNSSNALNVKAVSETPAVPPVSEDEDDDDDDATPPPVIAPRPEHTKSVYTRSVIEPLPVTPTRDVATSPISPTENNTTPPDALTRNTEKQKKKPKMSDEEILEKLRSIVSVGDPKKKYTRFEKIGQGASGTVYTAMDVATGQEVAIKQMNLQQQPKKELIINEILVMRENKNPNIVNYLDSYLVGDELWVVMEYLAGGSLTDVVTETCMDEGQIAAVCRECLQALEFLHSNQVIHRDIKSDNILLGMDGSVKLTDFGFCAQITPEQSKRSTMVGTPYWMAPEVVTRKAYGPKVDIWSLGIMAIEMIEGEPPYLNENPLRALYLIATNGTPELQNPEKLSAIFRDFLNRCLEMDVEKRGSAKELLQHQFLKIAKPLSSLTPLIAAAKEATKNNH", "chain of UniProt Q99755 (whole entry, looked up)": "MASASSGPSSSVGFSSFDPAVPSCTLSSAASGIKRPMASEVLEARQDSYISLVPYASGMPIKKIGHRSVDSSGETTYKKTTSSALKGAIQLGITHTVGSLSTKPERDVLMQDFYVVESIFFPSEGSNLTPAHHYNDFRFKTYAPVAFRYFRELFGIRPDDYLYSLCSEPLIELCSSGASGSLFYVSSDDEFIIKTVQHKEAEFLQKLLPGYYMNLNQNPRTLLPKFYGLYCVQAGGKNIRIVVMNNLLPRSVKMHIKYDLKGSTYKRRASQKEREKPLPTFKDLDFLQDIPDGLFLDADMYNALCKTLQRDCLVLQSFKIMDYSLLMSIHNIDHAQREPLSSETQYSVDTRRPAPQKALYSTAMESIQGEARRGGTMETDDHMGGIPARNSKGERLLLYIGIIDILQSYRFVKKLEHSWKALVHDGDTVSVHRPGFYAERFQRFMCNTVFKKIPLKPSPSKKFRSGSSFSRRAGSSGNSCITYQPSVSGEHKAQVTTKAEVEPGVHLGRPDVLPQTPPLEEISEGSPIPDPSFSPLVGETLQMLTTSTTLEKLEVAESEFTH", "chain of UniProt O15146 (whole entry, looked up)": "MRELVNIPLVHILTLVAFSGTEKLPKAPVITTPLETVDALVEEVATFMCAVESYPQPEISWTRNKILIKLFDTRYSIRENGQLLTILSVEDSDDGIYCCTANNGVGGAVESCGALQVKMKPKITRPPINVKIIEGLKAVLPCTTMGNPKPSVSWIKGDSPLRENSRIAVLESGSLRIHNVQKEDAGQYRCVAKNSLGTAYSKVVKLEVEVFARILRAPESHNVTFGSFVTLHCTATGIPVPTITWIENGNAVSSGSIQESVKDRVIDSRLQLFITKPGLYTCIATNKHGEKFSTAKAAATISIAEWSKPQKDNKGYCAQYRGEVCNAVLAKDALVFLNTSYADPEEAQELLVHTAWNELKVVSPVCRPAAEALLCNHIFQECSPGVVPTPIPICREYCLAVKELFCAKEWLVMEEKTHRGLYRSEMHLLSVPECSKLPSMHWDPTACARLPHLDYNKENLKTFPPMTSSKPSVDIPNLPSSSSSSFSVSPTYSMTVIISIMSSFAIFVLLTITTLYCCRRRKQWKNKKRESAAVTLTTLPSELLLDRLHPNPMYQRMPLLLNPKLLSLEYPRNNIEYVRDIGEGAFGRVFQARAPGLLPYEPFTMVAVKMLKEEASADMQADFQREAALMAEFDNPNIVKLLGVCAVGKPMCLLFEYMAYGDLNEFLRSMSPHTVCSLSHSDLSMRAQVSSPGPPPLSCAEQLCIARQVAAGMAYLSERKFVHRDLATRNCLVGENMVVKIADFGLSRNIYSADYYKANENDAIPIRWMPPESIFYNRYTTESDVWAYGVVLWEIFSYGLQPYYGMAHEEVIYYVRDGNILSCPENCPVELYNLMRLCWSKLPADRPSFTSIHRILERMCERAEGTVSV", "chain of UniProt P68400 (whole entry, looked up)": "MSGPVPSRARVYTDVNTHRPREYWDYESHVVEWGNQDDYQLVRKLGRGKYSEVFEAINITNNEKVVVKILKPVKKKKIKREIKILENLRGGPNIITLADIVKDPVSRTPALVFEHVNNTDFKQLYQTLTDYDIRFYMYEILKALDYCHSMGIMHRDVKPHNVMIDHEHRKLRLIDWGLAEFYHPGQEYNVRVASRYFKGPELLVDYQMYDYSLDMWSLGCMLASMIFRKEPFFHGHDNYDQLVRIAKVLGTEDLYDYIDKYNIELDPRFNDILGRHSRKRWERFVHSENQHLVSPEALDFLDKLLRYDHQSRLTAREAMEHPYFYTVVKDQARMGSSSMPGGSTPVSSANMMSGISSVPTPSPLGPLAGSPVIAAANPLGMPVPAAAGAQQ"}
{"data": "Study 1", "Structure (SMILES)": "O=C1NC(=O)c2c1c1c3ccccc3[nH]c1c1[nH]c3cc(Br)ccc3c21", "observed": "enzyme activity", "mode": "inhibitor", "concentration": "0.5 µM", "baseline": "control"}
{"target": "CAMKK1 (Homo sapiens, UniProt Q8N5S9)", "remaining activity": "99.1%"}
{"target": "SIK2 (Homo sapiens, UniProt Q9H0K1)", "remaining activity": "80.4%"}
{"target": "TEC (Homo sapiens, UniProt P42680)", "remaining activity": "105%"}
{"target": "PRKCZ (Homo sapiens, UniProt Q05513)", "remaining activity": "91.8%"}
{"target": "CLK2 (Homo sapiens, UniProt P49760)", "remaining activity": "84.7%"}
{"target": "MUSK (Homo sapiens, UniProt O15146)", "remaining activity": "88.5%"}
{"target": "PAK1 (Homo sapiens, UniProt Q13153)", "remaining activity": "87.8%"}
{"data": "Study 2", "Compound": "O=C(Nc1cccnn1)N1CCC(=Cc2cccc(Oc3ccc(C(F)(F)F)cn3)c2)CC1", "observed": "cell-free assay", "technique": "competition with immobilised ligand", "concentration": "1 µM"}
{"target": "DAPK2 (Homo sapiens, UniProt Q9UIK4)", "remaining binding [%]": 69}
{"target": "CDK5 (Homo sapiens, UniProt Q00535)", "remaining binding [%]": 92}
{"target": "CDK7 (Homo sapiens, UniProt P50613)", "remaining binding [%]": 100}
{"target": "SRPK3 (Homo sapiens, UniProt Q9UPE1)", "remaining binding [%]": 81}
{"target": "PIK3CB (Homo sapiens, UniProt P42338)", "remaining binding [%]": 100}
{"target": "ACVR2B (Homo sapiens, UniProt Q13705)", "remaining binding [%]": 98}
{"target": "MAP3K7 (Homo sapiens, UniProt O43318)", "remaining binding [%]": 100}
{"target": "CSNK2A1 (Homo sapiens, UniProt P68400)", "remaining binding [%]": 100}
{"target": "Tyrosine-protein kinase ABL1, non-phosphorylated (ABL1, Homo sapiens, UniProt P00519, T315I)", "remaining binding [%]": 100}
{"target": "BUB1 (Homo sapiens, UniProt O43683)", "remaining binding [%]": 100}
{"target": "PIK3CA (Homo sapiens, UniProt P42336, H1047L)", "remaining binding [%]": 100}
{"target": "PLK3 (Homo sapiens, UniProt Q9H4B4)", "remaining binding [%]": 100}
{"target": "PIP5K1A (Homo sapiens, UniProt Q99755)", "remaining binding [%]": 100}
{"target": "STK17B (Homo sapiens, UniProt O94768)", "remaining binding [%]": 100}
{"target": "MAPK6 (Homo sapiens, UniProt Q16659)", "remaining binding [%]": 90}
{"target": "Ribosomal protein S6 kinase alpha-5, C-terminal kinase domain (RPS6KA5, Homo sapiens, UniProt O75582)", "remaining binding [%]": 83}
{"target": "CHEK1 (Homo sapiens, UniProt O14757)", "remaining binding [%]": 78}
{"data": "Study 3", "Structure (SMILES)": "COc1ccc(-c2c(Nc3ccccn3)[nH]c3c(C4=CCCCC4)c(-c4ccccc4)nn3c2=O)cc1", "species": "cancer patients", "matrix": "plasma", "route": "oral"}
{"dose": "200 mg once daily", "time": "cycle 1 day 15", "setting": "multiple dosing", "Tmax, median [h]": 3}
{"dose": "50 mg", "time": "cycle 0 day -3", "setting": "single dose", "Tmax, median [h]": 3}
{"dose": "150 mg", "time": "cycle 0 day -3", "setting": "single dose", "Tmax, median [h]": 3}
{"dose": "100 mg", "time": "cycle 0 day -3", "setting": "single dose", "Tmax, median [h]": 3}
{"data": "Study 4", "cell line": "mouse MPNST tumor cells", "technique": "high-content nuclear imaging", "measured": "cell number", "concentration": "10 µM", "time": "12 h", "setting": "mean of 2 replicates", "baseline": "plate mean", "reading": "higher = more cells"}
{"SMILES": "CC(C)(C)c1ccc(OC2CCCCC2O)cc1 (centres unmarked)", "nuclei count [z-score]": 2}
{"SMILES": "CC(C)NCC(O)c1ccc(O)c(O)c1 (single isomer, unassigned; (+))", "nuclei count [z-score]": 0.235}
{"SMILES": "CCC1=C(C)CN(C(=O)NCCc2ccc(S(=O)(=O)NC(=O)N[C@H]3CC[C@H](C)CC3)cc2)C1=O", "nuclei count [z-score]": 2.24}
{"SMILES": "CN1CCCC1CCn1cc(C2=C(c3c[nH]c4ccccc34)C(=O)NC2=O)c2ccccc21 (centres unmarked)", "nuclei count [z-score]": 2.85}
{"SMILES": "CCCCN1C[C@H](O)[C@@H](O)[C@H](O)[C@H]1CO", "nuclei count [z-score]": -0.214}
{"SMILES": "CSc1ccc2c(c1)C(N1CCN(C)CC1)Cc1ccccc1S2 (centres unmarked)", "nuclei count [z-score]": -5.01}
{"data": "Study 5", "species": "human", "matrix": "microsomes or S9", "concentration": "2 µM", "time": "0.5 h"}
{"Compound": "O=c1cc(-c2ccccc2)[nH]c2nc(CCc3ccccc3)nn12", "remaining compound": "88.5%"}
{"Compound": "CCc1ccc(N2C(=O)CN(S(C)(=O)=O)CC2(C)C(=O)NCc2ccc(F)cc2)cc1 (centres unmarked)", "remaining compound": "19.3%"}
{"Compound": "COc1cc(=O)[nH]cc1C(=O)N1CCN(C)c2ncccc2C1", "remaining compound": "> 99%"}
{"Compound": "COc1cc(=O)n(-c2ccc(F)cc2)nc1C(=O)Nc1ccc(-c2nc3ccc(C)cc3s2)cc1", "remaining compound": "65.2%"}
